Experimental data of several laboratories.
Lines come from different studies, so protocols differ. ± gives the spread as reported.
Organism: SARS-CoV-2

Compound | effect on | method | cells | strain | time | notes | EC50 [nM]
CCCCCCC(C)(C)c1cc(O)c([C@H]2CC(=O)[C@H]3C[C@@H]2C3(C)C)c(OC(=O)/C=C/C(=O)O)c1 | viral replication | GFP plate reader screen |  |  |  | cell-based | > 100000
CCOc1ccc(NC(=O)C(=O)NCCc2csc3nc(-c4cccs4)nn23)cc1 | plaque formation | plaque reduction | Vero E6 |  | 72 h |  | > 50000
CCN(CC)C(=S)SSC(=S)N(CC)CC | viral replication |  | Vero E6 |  | 96 h |  | > 100000
O=C[C@H](C[C@@H]1CCNC1=O)NC(=O)[C@H](CC1CC1)N1C[C@@H](NC(=O)OCc2ccccc2)CCC1=O | viral replication |  | Vero C1008 | USA-WA1/2020 |  |  | ~38200
CCNC/C=C\CNCCCCNCCCCNC/C=C\CNCC | viral replication |  | Huh-7-ACE2 | USA-WA1/2020 | 24 h |  | 6000
CC(=O)c1cccc(NC(=O)c2cc3c(=O)n4ccccc4nc3n2C)c1 | viral replication |  | Vero E6 |  |  |  | 107
N#C[C@@]1(n2ccc(N)nc2=O)O[C@H](CO)[C@@H](O)[C@H]1O | viral replication | cell-based |  | Washington |  |  | 500 ± 800
COc1ccc(-c2ocnc2C(=O)NCCCn2cncn2)cc1Cl | plaque formation | plaque reduction | Vero E6 |  | 72 h |  | 11200 ± 5500
CC(C)OC(=O)[C@H](C)N[P@](=O)(OC[C@H]1O[C@@](C#N)(c2ccc3c(N)ncnn23)[C@H](O)[C@@H]1O)Oc1ccccc1 | viral replication |  | A549-ACE2-TMPRSS2 | WA1 | 24 h |  | 5200
CC(C)(C)c1ccc(N(Cc2cc(Cl)cs2)C(=O)Cc2cncc3ccccc23)cc1 | viral replication |  | Calu-3 | Omicron BA.1 |  |  | 6000
CN(C)CCOC1=Cc2ccccc2Sc2ccc(Cl)cc21 | viral replication | GFP plate reader screen |  |  |  | cell-based | > 100000
O=c1c(O)c(-c2cc(O)c(O)c(O)c2)oc2cc(O)cc(O)c12 | viral replication |  | Vero C1008 |  | 72 h |  | > 31200
OCCN1CCN(CCC=C2c3ccccc3Sc3ccc(C(F)(F)F)cc32)CC1 |  |  | Vero C1008 | WIV04 | 24 h |  | 2950
C=C1C[C@@]23CC[C@H]4[C@@](C)(CCC[C@@]4(C)C(=O)O)[C@@H]2CC[C@@H]1C3 | viral replication |  |  | mNeonGreen reporter |  |  | 15100 ± 900
C[C@@H]1CS/C(=N\NC(=O)C(=O)[C@H](NC(=O)C2CCCCCC2)C2CCOCC2)N1C | viral replication |  | 293T-ACE2 | USA-WA1/2020 | 24 h |  | 42
CC(C)(C)[C@H](NC(=O)C(F)(F)F)C(=O)N1C[C@H]2[C@@H]([C@H]1C(=O)N[C@@H](C[C@@H]1CCNC1=O)C(=O)c1nc3cccc(F)c3s1)C2(C)C | viral replication |  | Vero C1008 | JPN/TY/WK-521 (ancestral Wuhan) |  |  | 80
CC(C)(C)[C@H](NC(=O)C(F)(F)F)C(=O)N1C[C@H]2[C@@H]([C@H]1C(=O)N[C@H](C#N)C[C@@H]1CCNC1=O)C2(C)C | viral replication | qRT-PCR of viral RNA | Calu-3 | Washington |  |  | 1800 ± 800
CN(C)c1ccc(N(Cc2cc(Cl)cs2)C(=O)Cc2cncc3cccc(O)c23)cc1 |  | nucleocapsid staining | Caco-2 | Omicron BA.5 |  |  | 60 ± 50
CCOC(=O)c1c(CSc2ccccc2)n(C)c2cc(Br)c(O)c(CN(C)C)c12 |  |  | Vero C1008 | MEX-BC2/2020 | 96 h |  | 5600
C[C@@H]1CN(c2ncc(C(O)CO)cc2Cl)CCN1c1nc2c(-c3cc(F)c(F)c(F)c3)cc(C(F)(F)F)cc2[nH]1 (stereo partly drawn) | viral replication |  | 293T-ACE2 | USA-WA1/2020 | 24 h |  | 1900
OC1(c2ccc(Cl)c(C(F)(F)F)c2)CCN(CCCC(c2ccc(F)cc2)c2ccc(F)cc2)CC1 | viral replication | GFP plate reader screen |  |  |  | cell-based | > 100000
O=C[C@H](C[C@@H]1CCNC1=O)NC(=O)[C@H](CC1CCCCC1)NC(=O)c1cc2ccccc2[nH]1 | viral replication |  | Vero E6 | 2019-nCoV-WIV04 |  | 40% human serum | 2140
CN1CCC(CN2c3ccccc3Sc3ccccc32)C1 (stereo not drawn) | viral replication | high-content imaging screen |  |  |  | cell-based | > 100000
C1=C(c2ccc(CN3CCCCC3)cc2)N2CCN=C2c2ccccc21 | viral replication |  | Huh-7-ACE2 | USA-WA1/2020 | 24 h |  | 110
COc1cccc2[nH]c(C(=O)N[C@@H](CC(C)C)C(=S)N[C@@H](C[C@@H]3CCNC3=O)C(=O)c3nc4ccccc4s3)cc12 | viral replication | RT-qPCR | VeroE6 | WK-521 |  |  | 2700 ± 150
O=C1c2ccccc2-[n+]2ccc3c([nH]c4ccccc43)c21 | virus-induced cytopathic effect |  | Vero E6 | USA-WA1/2020 | 72 h |  | > 20000

Compound | effect on | method | cells | strain | time | notes | EC50 [nM]
CC(C)(C)NCc1ccc(Nc2ccnc3cc(Cl)ccc23)cc1O | viral replication |  | Huh-7-ACE2 | USA-WA1/2020 | 24 h |  | 370
CC(C)(C)NC(=O)N[C@H](C(=O)N1C[C@H]2[C@@H]([C@H]1C(=O)NC(CC1CCC1)C(=O)C(N)=O)C2(C)C)C(C)(C)C (stereo partly drawn) | plaque formation | plaque reduction | Vero E6 |  | 72 h |  | 22000 ± 2600
C=CC(=O)Nc1cccc(-c2snc3cc(-c4ccc(N)c(OC)c4)cnc23)c1 | viral replication |  | Vero E6 | USA-WA1/2020 |  |  | 500
COc1ccc2cc1Oc1ccc(cc1)C[C@H]1c3cc(c(OC)cc3CCN1C)Oc1c(OC)c(OC)cc3c1[C@H](C2)N(C)CC3 | viral replication |  | Huh-7-ACE2 | USA-WA1/2020 | 24 h |  | 640
C[C@@]1(O)[C@H](O)[C@@H](CO)O[C@H]1n1cc(F)c2c(N)ncnc21 | viral replication |  | Vero |  | 48 h |  | 7600 ± 400
COC1=CC(=O)N(C(=O)/C=C/[C@H](C)NC(=O)[C@H](CC(C)C)NC(=O)[C@H](CC2CCCCC2)NC(=O)C2CCN(C)CC2)[C@H]1Cc1c[nH]c2ccccc12 | viral cytopathic effect |  | A549-ACE2 |  |  |  | > 5000
CCC(CC)COC(=O)[C@H](C)N[P@](=O)(OC[C@H]1O[C@@](C#N)(c2ccc3c(N)ncnn23)[C@H](O)[C@@H]1O)Oc1ccccc1 | viral replication |  | VeroE6/TMPRSS2 |  |  |  | 910
NC(=O)c1c(NC(=O)c2cnn3c(C(F)F)cc(-c4ccccc4)nc23)sc2c1CCCC2 | plaque formation | plaque reduction | Vero E6 |  | 72 h |  | > 50000
CC(Cc1ccccc1)NCCC(c1ccccc1)c1ccccc1 (stereo not drawn) | viral replication | high-content imaging screen |  |  |  | cell-based | > 100000
COc1ccc(N(Cc2cc(Cl)cs2)C(=O)Cc2cncc3ccccc23)cc1 | viral replication |  | Calu-3 | Omicron BA.1 |  |  | 1000
COc1ccc(Cc2nn3c([C@@H](CCCc4ccccc4)[C@@H](C)O)nc(C)c3c(=O)[nH]2)cc1OC | plaque formation | plaque reduction | Vero E6 |  | 72 h |  | 16700 ± 5900
C[C@H](NC(=O)[C@@H](c1cccnc1)N(C(=O)C(Cl)Cl)c1ccc(-c2ccccc2)cc1)c1ccccc1 | viral replication |  | Caco-2 hACE2 |  |  |  | 2050
Cc1c(-c2ccccc2)oc2c(C(=O)OC(C)(C)CN3CCCCC3)cccc2c1=O | viral replication | high-content imaging screen |  |  |  | cell-based | > 100000
Cn1cnc(Cn2c(=O)[nH]/c(=N\c3cc4cn(C)nc4cc3Cl)n(Cc3cc(F)c(F)cc3F)c2=O)n1 | viral replication |  | Vero C1008 | WT replicon ΔS-E-M | 24 h |  | 15
COc1ccc(C(=O)CN(C(=O)c2ccc(Cl)cc2)N2C(=O)CCC2=O)cc1 | plaque formation | plaque reduction | Vero E6 |  | 72 h |  | > 50000
Cc1cc(-c2ccc(/N=N/c3ccc4c(S(=O)(=O)O)cc(S(=O)(=O)O)c(N)c4c3O)c(C)c2)ccc1/N=N/c1ccc2c(S(=O)(=O)O)cc(S(=O)(=O)O)c(N)c2c1O | viral replication | high-content imaging screen |  |  |  | cell-based | > 100000
Nc1ncnc2c1nnn2[C@@H]1C(F)=C(CO)[C@@H](O)[C@H]1O | viral replication | spike protein immunostaining | Vero |  | 48 h |  | 12200
Cc1nc2ccccn2c(=O)c1CCN1CCC(=C(c2ccc(F)cc2)c2ccc(F)cc2)CC1 | viral replication | high-content imaging screen |  |  |  | cell-based | > 100000
CCC(CC)COC(=O)[C@H](C)N[P@](=O)(OC[C@H]1O[C@@](C#N)(c2ccc3c(N)ncnn23)[C@H](O)[C@@H]1O)Oc1ccccc1 | viral replication | qPCR | Vero E6 |  |  |  | 9.9 ± 1.75
CCC(CC)COC(=O)[C@H](C)N[P@](=O)(OC[C@H]1O[C@@](C#N)(c2ccc3c(N)ncnn23)[C@H](O)[C@@H]1O)Oc1ccccc1 | viral replication | cell-based |  | Washington |  |  | 300 ± 200
Cn1cnc(Cn2c(=O)[nH]/c(=N\c3cc4cn(C)nc4cc3Cl)n(Cc3cc(F)c(F)cc3F)c2=O)n1 | viral replication |  | Vero C1008 | Delta |  |  | 190
[N-]=[N+]=N[C@]1(CO)O[C@@H](n2ccc(N)nc2=O)[C@@H](F)[C@@H]1O | viral replication |  | A549-hACE2 | USA-WA1/2020 nLuc reporter |  |  | > 100000
CCc1cc(Br)cc2c(C(=O)N3CCOCC3)cc(-c3ccc(OC)cc3)nc12 | plaque formation | plaque reduction | Vero E6 |  | 72 h |  | 7200 ± 1000
CCc1ccc(NC(=O)c2cc3c(=O)n4ccccc4nc3n2C)cc1 | viral replication |  | Vero E6 |  |  |  | 76.2
NC(=O)c1nnn([C@@H]2C(F)=C(CO)[C@@H](O)[C@H]2O)c1N | viral replication | spike protein immunostaining | Vero |  | 48 h |  | > 100000

For quick reference, copied from above:
Compound | effect on | method | cells | strain | time | notes | EC50 [nM]
COc1ccc2cc1Oc1ccc(cc1)C[C@H]1c3cc(c(OC)cc3CCN1C)Oc1c(OC)c(OC)cc3c1[C@H](C2)N(C)CC3 | viral replication |  | Huh-7-ACE2 | USA-WA1/2020 | 24 h |  | 640
CCC(CC)COC(=O)[C@H](C)N[P@](=O)(OC[C@H]1O[C@@](C#N)(c2ccc3c(N)ncnn23)[C@H](O)[C@@H]1O)Oc1ccccc1 | viral replication | qPCR | Vero E6 |  |  |  | 9.9 ± 1.75
C1=C(c2ccc(CN3CCCCC3)cc2)N2CCN=C2c2ccccc21 | viral replication |  | Huh-7-ACE2 | USA-WA1/2020 | 24 h |  | 110
